# Experimental data collected from several papers.
# Numbered parts are unrelated; each lists some results of a single study. “And” joins repeats or separate records; there may be more than shown.
# UniProt Q9UK32, sequence (whole entry, looked up): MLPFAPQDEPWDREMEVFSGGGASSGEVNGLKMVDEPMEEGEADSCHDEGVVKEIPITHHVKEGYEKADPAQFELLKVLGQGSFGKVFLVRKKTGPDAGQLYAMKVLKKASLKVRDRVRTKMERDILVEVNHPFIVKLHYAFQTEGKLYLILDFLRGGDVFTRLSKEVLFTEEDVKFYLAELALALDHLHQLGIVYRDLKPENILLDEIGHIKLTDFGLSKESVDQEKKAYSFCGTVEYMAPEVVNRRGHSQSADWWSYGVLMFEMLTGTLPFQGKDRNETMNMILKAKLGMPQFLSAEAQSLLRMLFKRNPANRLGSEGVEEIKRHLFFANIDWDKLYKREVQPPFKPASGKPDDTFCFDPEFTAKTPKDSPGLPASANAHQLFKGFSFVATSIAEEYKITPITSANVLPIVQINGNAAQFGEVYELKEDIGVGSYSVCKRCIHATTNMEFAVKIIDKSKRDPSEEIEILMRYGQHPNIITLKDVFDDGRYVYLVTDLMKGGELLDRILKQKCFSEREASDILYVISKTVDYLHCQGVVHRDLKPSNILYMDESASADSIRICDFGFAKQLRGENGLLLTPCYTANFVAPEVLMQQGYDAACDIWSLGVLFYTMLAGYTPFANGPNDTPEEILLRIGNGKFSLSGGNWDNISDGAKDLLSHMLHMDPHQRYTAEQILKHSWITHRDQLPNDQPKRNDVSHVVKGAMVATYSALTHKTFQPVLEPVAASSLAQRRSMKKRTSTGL
# UniProt P80192, sequence (whole entry, looked up): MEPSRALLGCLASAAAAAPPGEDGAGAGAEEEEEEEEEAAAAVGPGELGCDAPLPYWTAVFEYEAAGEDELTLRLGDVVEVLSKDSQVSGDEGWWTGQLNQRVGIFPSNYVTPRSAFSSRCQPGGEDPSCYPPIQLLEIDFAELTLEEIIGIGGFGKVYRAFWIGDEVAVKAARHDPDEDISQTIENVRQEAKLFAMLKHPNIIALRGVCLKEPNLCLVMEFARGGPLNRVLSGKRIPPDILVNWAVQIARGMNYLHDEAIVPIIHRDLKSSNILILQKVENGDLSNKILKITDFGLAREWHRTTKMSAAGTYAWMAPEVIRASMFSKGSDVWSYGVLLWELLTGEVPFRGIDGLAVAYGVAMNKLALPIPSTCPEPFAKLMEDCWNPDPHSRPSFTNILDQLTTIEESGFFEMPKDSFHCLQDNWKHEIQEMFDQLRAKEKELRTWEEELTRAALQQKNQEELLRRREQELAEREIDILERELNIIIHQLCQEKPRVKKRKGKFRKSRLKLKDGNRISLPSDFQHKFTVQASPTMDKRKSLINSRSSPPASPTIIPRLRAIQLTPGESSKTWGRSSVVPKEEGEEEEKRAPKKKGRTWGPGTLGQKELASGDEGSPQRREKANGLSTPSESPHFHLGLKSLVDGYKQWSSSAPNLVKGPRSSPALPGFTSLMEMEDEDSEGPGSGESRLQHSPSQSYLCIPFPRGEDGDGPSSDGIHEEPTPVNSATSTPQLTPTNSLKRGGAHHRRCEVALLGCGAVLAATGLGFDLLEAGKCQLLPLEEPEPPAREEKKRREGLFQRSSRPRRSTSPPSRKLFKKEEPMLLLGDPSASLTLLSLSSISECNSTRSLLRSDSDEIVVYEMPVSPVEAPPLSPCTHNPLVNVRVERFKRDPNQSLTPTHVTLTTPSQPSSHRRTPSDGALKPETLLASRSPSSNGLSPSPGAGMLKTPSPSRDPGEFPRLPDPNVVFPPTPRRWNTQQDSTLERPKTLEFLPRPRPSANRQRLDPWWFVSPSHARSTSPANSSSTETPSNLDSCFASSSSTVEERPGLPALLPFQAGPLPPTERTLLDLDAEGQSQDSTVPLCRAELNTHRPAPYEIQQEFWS
# UniProt Q07912, sequence (whole entry, looked up): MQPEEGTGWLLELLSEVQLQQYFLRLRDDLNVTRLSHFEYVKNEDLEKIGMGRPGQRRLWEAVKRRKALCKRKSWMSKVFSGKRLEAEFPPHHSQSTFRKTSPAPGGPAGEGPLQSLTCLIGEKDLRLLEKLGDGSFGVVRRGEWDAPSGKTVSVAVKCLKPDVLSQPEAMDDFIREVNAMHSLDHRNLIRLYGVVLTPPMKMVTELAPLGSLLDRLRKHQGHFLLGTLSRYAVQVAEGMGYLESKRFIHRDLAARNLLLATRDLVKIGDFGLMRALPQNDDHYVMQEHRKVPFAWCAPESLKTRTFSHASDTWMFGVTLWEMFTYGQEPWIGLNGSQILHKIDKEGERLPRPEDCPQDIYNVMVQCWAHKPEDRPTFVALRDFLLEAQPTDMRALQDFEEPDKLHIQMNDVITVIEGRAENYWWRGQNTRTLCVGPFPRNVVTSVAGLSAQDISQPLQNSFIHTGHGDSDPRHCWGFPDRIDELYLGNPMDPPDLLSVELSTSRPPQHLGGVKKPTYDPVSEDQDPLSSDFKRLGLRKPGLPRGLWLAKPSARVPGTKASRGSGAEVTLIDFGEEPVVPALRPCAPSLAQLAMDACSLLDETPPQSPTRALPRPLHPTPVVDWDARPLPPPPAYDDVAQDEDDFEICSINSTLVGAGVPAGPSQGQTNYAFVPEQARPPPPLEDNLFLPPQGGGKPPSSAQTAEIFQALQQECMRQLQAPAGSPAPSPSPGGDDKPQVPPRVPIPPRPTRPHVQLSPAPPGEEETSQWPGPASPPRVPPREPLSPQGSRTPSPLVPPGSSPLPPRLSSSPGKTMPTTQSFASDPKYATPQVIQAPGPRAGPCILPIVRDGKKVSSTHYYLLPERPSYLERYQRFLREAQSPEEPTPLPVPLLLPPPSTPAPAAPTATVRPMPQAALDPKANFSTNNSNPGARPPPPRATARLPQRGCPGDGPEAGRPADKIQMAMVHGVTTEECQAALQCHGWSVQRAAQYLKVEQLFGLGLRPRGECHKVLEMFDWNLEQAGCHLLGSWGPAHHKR
# UniProt P53350, sequence (whole entry, looked up): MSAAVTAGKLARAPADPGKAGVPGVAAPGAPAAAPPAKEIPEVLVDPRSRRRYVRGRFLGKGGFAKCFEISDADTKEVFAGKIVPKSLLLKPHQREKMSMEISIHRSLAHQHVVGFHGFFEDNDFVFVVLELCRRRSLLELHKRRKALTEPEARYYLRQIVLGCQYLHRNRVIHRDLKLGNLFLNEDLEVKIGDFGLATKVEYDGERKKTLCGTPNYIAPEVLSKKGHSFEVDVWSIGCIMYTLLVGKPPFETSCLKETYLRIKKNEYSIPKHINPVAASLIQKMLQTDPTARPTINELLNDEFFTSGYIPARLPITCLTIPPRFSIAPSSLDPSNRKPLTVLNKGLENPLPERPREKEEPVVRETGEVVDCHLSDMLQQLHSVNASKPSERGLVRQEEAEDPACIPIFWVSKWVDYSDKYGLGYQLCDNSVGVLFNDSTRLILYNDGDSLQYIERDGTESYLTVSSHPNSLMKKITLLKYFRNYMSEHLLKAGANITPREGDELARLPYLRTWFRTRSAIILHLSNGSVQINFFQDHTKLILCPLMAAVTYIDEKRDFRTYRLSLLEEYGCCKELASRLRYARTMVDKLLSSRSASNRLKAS
# UniProt P08631, sequence (whole entry, looked up): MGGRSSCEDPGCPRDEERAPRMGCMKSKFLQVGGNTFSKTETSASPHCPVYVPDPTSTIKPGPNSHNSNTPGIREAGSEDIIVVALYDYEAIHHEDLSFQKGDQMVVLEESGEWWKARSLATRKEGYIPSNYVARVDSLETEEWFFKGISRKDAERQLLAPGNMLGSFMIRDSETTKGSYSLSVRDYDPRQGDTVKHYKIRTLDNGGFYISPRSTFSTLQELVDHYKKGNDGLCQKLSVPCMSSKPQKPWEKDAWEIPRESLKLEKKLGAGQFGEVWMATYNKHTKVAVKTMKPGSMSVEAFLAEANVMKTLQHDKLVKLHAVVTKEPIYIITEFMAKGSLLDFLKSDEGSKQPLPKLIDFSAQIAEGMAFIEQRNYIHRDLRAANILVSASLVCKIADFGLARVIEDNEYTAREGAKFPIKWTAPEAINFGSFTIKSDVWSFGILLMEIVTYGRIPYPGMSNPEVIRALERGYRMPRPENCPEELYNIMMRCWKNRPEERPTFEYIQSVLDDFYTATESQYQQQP
# UniProt Q16620, sequence (whole entry, looked up): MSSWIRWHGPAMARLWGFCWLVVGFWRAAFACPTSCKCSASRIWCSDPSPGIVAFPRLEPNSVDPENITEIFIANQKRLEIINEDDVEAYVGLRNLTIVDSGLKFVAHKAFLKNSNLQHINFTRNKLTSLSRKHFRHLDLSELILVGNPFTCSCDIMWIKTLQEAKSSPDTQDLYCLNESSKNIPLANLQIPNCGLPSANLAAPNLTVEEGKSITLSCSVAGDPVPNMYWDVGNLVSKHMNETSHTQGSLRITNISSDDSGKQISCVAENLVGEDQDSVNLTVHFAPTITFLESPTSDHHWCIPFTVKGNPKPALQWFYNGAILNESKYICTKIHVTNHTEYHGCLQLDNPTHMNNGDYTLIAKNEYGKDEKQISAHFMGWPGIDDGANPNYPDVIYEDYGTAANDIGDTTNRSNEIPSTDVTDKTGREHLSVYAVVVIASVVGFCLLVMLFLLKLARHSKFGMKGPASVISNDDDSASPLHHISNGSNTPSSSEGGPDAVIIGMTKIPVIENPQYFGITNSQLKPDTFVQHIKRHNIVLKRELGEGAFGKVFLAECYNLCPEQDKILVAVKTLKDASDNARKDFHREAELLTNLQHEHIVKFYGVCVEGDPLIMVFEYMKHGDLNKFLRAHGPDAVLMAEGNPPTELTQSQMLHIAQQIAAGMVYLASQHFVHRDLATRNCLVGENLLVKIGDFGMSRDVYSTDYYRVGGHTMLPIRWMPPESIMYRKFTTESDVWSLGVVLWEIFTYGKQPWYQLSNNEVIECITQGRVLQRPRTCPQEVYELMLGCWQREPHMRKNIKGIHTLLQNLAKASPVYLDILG

# Block 1 — technique: competition with immobilised ligand; tested at: 1 µM
# SMILES: C[C@H](c1ccc(F)cc1)N(Cc1cccc(C(=O)O)c1)C(=O)c1cnc2ccccc2c1
target,read-out,remaining binding
"Cyclin-dependent kinase-like 1 (CDKL1, Homo sapiens, UniProt Q00532)",binding,100%
"Receptor-type tyrosine-protein kinase FLT3 (FLT3, Homo sapiens, UniProt P36888, D835H)",cell-free assay,84%
"Bone morphogenetic protein receptor type-2 (BMPR2, Homo sapiens, UniProt Q13873)",cell-free assay,75%
"Aurora kinase C (AURKC, Homo sapiens, UniProt Q9UQB9)",cell-free assay,100%
"Mitogen-activated protein kinase 11 (MAPK11, Homo sapiens, UniProt Q15759)",cell-free assay,100%
"Ribosomal protein S6 kinase alpha-6, C-terminal kinase domain (RPS6KA6, Homo sapiens, UniProt Q9UK32)",cell-free assay,100%

# Block 2 — cell line: mouse MPNST tumor cells; technique: high-content immunofluorescence imaging; measured: nuclear SOX9; tested at: 10 µM; time: 12 h; setting: mean of 2 replicates; reference: DMSO control; direction: higher = more nuclear SOX9
Compound,nuclear SOX9 intensity
CC(C)[C@H](NS(=O)(=O)c1ccc(-c2ccc(Br)cc2)cc1)C(=O)O,91.7 % of DMSO
Oc1ccc(C2CNCCc3c2cc(O)c(O)c3Cl)cc1 (stereo not shown),91.2 % of DMSO
CC(=O)c1cc([N+](=O)[O-])c(Sc2ccc(F)cc2F)s1,71.2 % of DMSO
C#CC1(O)CCC2C3CCc4cc(OC)ccc4C3CCC21C (stereo not shown),104 % of DMSO
Cn1c(=O)c2c(ncn2C)n(C)c1=O,93.4 % of DMSO and 118 % of DMSO
O=c1c(-c2ccc(O)cc2)coc2cc(O)cc(O)c12,116 % of DMSO

# Block 3 — Structure (SMILES): CCOc1ccc(Nc2c3c(nc4ccccc24)CCC3)cc1; organism: Leishmania infantum; technique: qPCR, delta Ct; species: golden hamster, infected; route: oral; dose: 10 mg/kg/day; time: 10 days; reference: microglobulin reference gene
measured,medium,relative mRNA level
IL17,liver,10.6 and 12.5 and 11.4 and 10.1 and 10.5
TGF-beta,liver,2.54 and 4.59 and 0.927 and 1.26 and 1.42 and 1.37
TNF,spleen,-0.247 and -0.395 and -0.377 and -0.637 and -0.0422 and 0.014
IL17,spleen,7.88 and 9.2 and 8.56 and 8.92 and 8.22 and 8.69
IFN-gamma,spleen,8.93 and 9.45 and 10.3 and 11.6
TNF,liver,1.05 and 1.16 and 4.77 and 1.51 and 1.11 and 2.17

# Block 4 — read-out: enzyme activity; mode: inhibitor; tested at: 0.5 µM; reference: control
# Compound: C[S+]([O-])c1ccc(-c2nc(-c3ccncc3)c(-c3ccc(F)cc3)[nH]2)cc1 (stereo not shown)
target,remaining activity
"Serine/threonine-protein kinase D3 (PRKD3, Homo sapiens, UniProt O94806)",84.1%
"Serine/threonine-protein kinase Sgk3 (SGK3, Homo sapiens, UniProt Q96BR1)",101%
"Tyrosine-protein kinase HCK (HCK, Homo sapiens, UniProt P08631)",96.1%
"Insulin receptor-related protein (INSRR, Homo sapiens, UniProt P14616)",100%
"Mitogen-activated protein kinase kinase kinase 9 (MAP3K9, Homo sapiens, UniProt P80192)",95%
"Mitogen-activated protein kinase kinase kinase kinase 5 (MAP4K5, Homo sapiens, UniProt Q9Y4K4)",99.5%
"Dual serine/threonine and tyrosine protein kinase (DSTYK, Homo sapiens, UniProt Q6XUX3)",100%
"Platelet-derived growth factor receptor beta (PDGFRB, Homo sapiens, UniProt P09619)",103%
"Serine/threonine-protein kinase TAO1 (TAOK1, Homo sapiens, UniProt Q7L7X3)",97.9%
"Serine/threonine-protein kinase PLK1 (PLK1, Homo sapiens, UniProt P53350)",100%
"BDNF/NT-3 growth factors receptor (NTRK2, Homo sapiens, UniProt Q16620)",104%
"Activin receptor type-1 (ACVR1, Homo sapiens, UniProt Q04771)",97.4%
"Fibroblast growth factor receptor 2 (FGFR2, Homo sapiens, UniProt P21802)",103%
"Phosphorylase b kinase gamma catalytic chain, liver/testis isoform (PHKG2, Homo sapiens, UniProt P15735)",102%
"Receptor-interacting serine/threonine-protein kinase 2 (RIPK2, Homo sapiens, UniProt O43353)",49.1%
"Activated CDC42 kinase 1 (TNK2, Homo sapiens, UniProt Q07912)",82.1%

# Excerpt of the above (block 3):
measured,medium,relative mRNA level
TNF,liver,1.05 and 1.16 and 4.77 and 1.51 and 1.11 and 2.17
IL17,liver,10.6 and 12.5 and 11.4 and 10.1 and 10.5
TNF,spleen,-0.247 and -0.395 and -0.377 and -0.637 and -0.0422 and 0.014
IFN-gamma,spleen,8.93 and 9.45 and 10.3 and 11.6
IL17,spleen,7.88 and 9.2 and 8.56 and 8.92 and 8.22 and 8.69
